{"data": "Assay results pooled from the literature", "note": "Lines come from different studies, so protocols differ. Several values in a cell are separate wells, animals, samples, runs or records. ± gives the spread as reported."}
{"Structure (SMILES)": "C[C@@H](N)C1CCN(S(=O)(=O)c2cccc3cnccc23)CC1", "system": "healthy volunteers, fasted, plasma", "conditions": "oral, 25 mg", "measurement": "tmax", "value": "0.75 h"}
{"Structure (SMILES)": "CCO[C@H]1CCN(Cc2c(OC)cc(C)c3[nH]ccc23)[C@H](c2ccc(C(=O)O)cc2)C1", "system": "human severe hepatic impairment, plasma", "conditions": "oral, 200 mg single dose, median", "measurement": "total Tmax", "value": "3 h"}
{"Structure (SMILES)": "COc1ccccc1OCCNCC(O)COc1cccc2[nH]c3ccccc3c12 (stereo not drawn)", "system": "0.2% w/v HPMC", "conditions": "pH 6.5, 37 °C, supersaturation ratio 5", "measurement": "nucleation induction time", "value": "0.78 ± 0.12 min"}
{"Structure (SMILES)": "COc1cc(Nc2ncc3c(n2)-c2ccc(Cl)cc2C(c2c(F)cccc2OC)=NC3)ccc1C(=O)O", "assay": "measured: Cough, grade 1", "system": "cancer patients, phase 1/2", "conditions": "oral, dose not given, added: pembrolizumab", "measurement": "patients with adverse event", "value": "21%"}
{"Structure (SMILES)": "O=c1c2ccccc2oc2ccccc12", "system": "tricaprin-tricaprylin mixture", "conditions": "75 °C, tricaprin fraction 0.77", "measurement": "solubility", "value": "0.0875 mole fraction"}
{"Structure (SMILES)": "COc1ccc(NC(=O)CCSc2nnc3scc(-c4ccc(C)cc4)n23)cc1", "system": "octanol/buffer", "conditions": "pH 11, known kinase inactives set", "measurement": "logP", "value": 3.6}
{"Structure (SMILES)": "CNC(=O)c1ccc(-c2cnc3ncc(Cc4ccc5ncccc5c4)n3n2)cc1F", "assay": "measured: Ascites, all grades", "system": "hepatocellular carcinoma patients", "conditions": "oral, 600 mg twice daily, expansion cohort, any causality", "measurement": "patients with adverse event", "value": "36%"}
{"Structure (SMILES)": "C=CC(=O)Nc1cc(Nc2nccc(-c3cn(C)c4ccccc34)n2)c(OC)cc1N(C)CCN(C)C", "system": "human plasma", "conditions": "5 h, storage stability, medium QC sample", "measurement": "recovery", "value": "90.3%"}
{"Structure (SMILES)": "COc1ccc(-n2c(SCC(N)=O)nnc2-c2cccs2)cc1", "system": "octanol/buffer", "conditions": "pH 11, known kinase inactives set", "measurement": "logP", "value": 1.66}
{"Structure (SMILES)": "CC(C)n1c(Nc2cccnc2)nc2cnc(Nc3ccc(N4CCN(C)CC4)cc3)nc21", "assay": "measured: platelet count decreased", "system": "healthy male subjects", "conditions": "oral, 100 mg, study, added: gemfibrozil", "measurement": "subjects with adverse event", "value": "0%"}
{"Structure (SMILES)": "O=C(O)c1cccc(C(=O)O)c1", "system": "Bet/Gly deep eutectic solvent", "conditions": "303.0 K", "measurement": "apparent dissolution enthalpy", "value": "4.43 kcal/mol"}
{"Structure (SMILES)": "CCc1c(-c2ccccc2)c(-c2ccccc2)nn1-c1ccccc1-c1cccc(OCC(=O)O)c1", "system": "female Sprague-Dawley rat, ovary homogenate", "conditions": "oral, 10 mg/kg, 8 h", "measurement": "concentration", "value": "32.8 ng/mL"}
{"Structure (SMILES)": "N#Cc1ccc2c(c1)[C@H]1CCCN(C(=O)c3ccc4[nH]cnc4c3)[C@H]1C2", "system": "human, male", "conditions": "360 mg, day 7", "measurement": "androstenedione level", "value": "7.9 nmol/L"}
{"Structure (SMILES)": "CCS(=O)(=O)Nc1ccc(Oc2ccc(F)cc2F)c(-c2cn(C)c(=O)c3[nH]ccc23)c1", "system": "human, plasma", "conditions": "oral, 1.5 mg, cycle 1 day 8, geometric mean", "measurement": "dose-normalised Cmax", "value": "12.3 ng/mL/mg"}
{"Structure (SMILES)": "Cc1cc(C)c(CNC(=O)c2cc(Cl)c3c(c2C)O[C@@](C)([C@H]2CC[C@H](N(C)C)CC2)O3)c(=O)[nH]1", "assay": "measured: Diarrhea", "system": "human patients", "conditions": "oral, 200 mg once daily, 1 day onset day 14", "measurement": "patients with grade ≥3 TEAE", "value": "4.2%"}
{"Structure (SMILES)": "C=CC(=O)Nc1cc(Nc2nccc(-c3cn(C)c4ccccc34)n2)c(OC)cc1N(C)CCN(C)C", "system": "human patients, plasma", "conditions": "oral, geometric mean", "measurement": "oral clearance", "value": "14.8 L/h"}
{"Structure (SMILES)": "C=CC(=O)Nc1cc(Nc2nccc(Nc3cc(Cl)c(F)cc3C(C)(C)O)n2)c(OC)cc1N1CC[C@@H](N(C)C)C1", "system": "human patients, plasma", "conditions": "oral, 100 mg daily, cycle 2 day 1, geometric mean", "measurement": "Css,max", "value": "252 ng/mL"}
{"Structure (SMILES)": "NC1(C(=O)N[C@@H](CCO)c2ccc(Cl)cc2)CCN(c2nc[nH]c3nccc2-3)CC1", "system": "metastatic CRPC patients", "conditions": "dose not given, grade 3 to 4, treatment-related, all doses, added: enzalutamide 160 mg daily", "measurement": "incidence of Vomiting", "value": "0%"}
{"Structure (SMILES)": "CCN1/C(=C/C(C)=O)Sc2ccc(F)cc21", "system": "cynomolgus monkey", "conditions": "oral, 100 mg/kg, 6 h post-dose", "scale": "baseline: pre-dose", "measurement": "diastolic blood pressure change", "value": "103 ± 9%"}
{"Structure (SMILES)": "CC(=O)c1ccc([C@H]2C[C@@]3(C)[C@@H](CC[C@@]3(O)C(F)(F)C(F)(F)F)[C@@H]3CCC4=CC(=O)CCC4=C32)cc1", "system": "human, pooled serum", "conditions": "oral, 200 mg, day 1, 2 h", "measurement": "serum concentration", "value": "24.2 ng/mL"}
{"Structure (SMILES)": "Oc1ccc(/C=C/c2cc(O)cc(O)c2)cc1", "system": "rat, azoxymethane-injected, blood at sacrifice", "conditions": "100 mg/kg", "measurement": "cholinesterase", "value": "7 IU/L and 8 IU/L and < 5 IU/L"}
{"Structure (SMILES)": "[18F]c1ccc(-c2ccc3c(c2)[nH]c2ccncc23)cn1", "assay": "ex vivo biodistribution", "system": "B6SJL mouse, normal, muscle", "conditions": "intravenous, 30 min", "measurement": "SUV", "value": "0.256 ± 0.057"}
{"Structure (SMILES)": "Nc1ccn([C@@H]2CS[C@H](CO)O2)c(=O)n1", "system": "Tat+ transgenic mouse, plasma", "conditions": "subcutaneous osmotic pump, dose not given, 5 d", "measurement": "drug concentration", "value": "501 ± 66.8 ng/mL"}
{"Structure (SMILES)": "CNC(=O)c1cc(Oc2ccc(NC(=O)Nc3cc(C(C)(C)C)nn3-c3ccc4ncccc4c3)c(F)c2)ccn1", "assay": "measured: worst grade 2", "system": "human", "conditions": "oral, dose not given, cycles 1 and 2, Medium Cmax subgroup", "measurement": "patients with nervous system disorder AE", "value": "7%"}
{"Structure (SMILES)": "OC[C@H]1O[C@@H](c2ccc(F)c(Cc3cc4ccccc4s3)c2)[C@H](O)[C@@H](O)[C@@H]1O", "system": "Japanese patients, type 1 diabetes", "conditions": "oral, 50 mg/day, onset day 3", "scale": "baseline: patients", "measurement": "hypoglycaemia-related adverse event", "value": "9%"}
{"Structure (SMILES)": "CO[C@H]1CC[C@H](N2C(=O)CNc3ncc(-c4ccc(C(C)(C)O)nc4)nc32)CC1", "system": "patients, plasma", "conditions": "oral, 15 mg, day -1, median", "measurement": "Tmax", "value": "1.25 h"}
{"Structure (SMILES)": "C=CCN1CC(=O)N2[C@@H](Cc3ccc(O)cc3F)C(=O)N(Cc3cccc(N4CC(N5CCN(CC)CC5)C4)n3)C[C@@H]2N1C(=O)NCc1ccccc1", "assay": "measured: Diarrhea", "system": "advanced solid tumour patients", "conditions": "all doses, expansion part, any grade", "measurement": "treatment-related adverse events", "value": "21.1%"}
{"Structure (SMILES)": "O=C(Nc1nc2cccc(-c3ccc(CN4CCS(=O)(=O)CC4)cc3)n2n1)C1CC1", "assay": "measured: arthralgia", "system": "human rheumatoid arthritis patients", "conditions": "oral, 75 mg once daily, 4 weeks, regardless of relatedness", "measurement": "treatment-emergent adverse events", "value": "0%"}
{"Structure (SMILES)": "CC(C)c1nc(N(C)S(C)(=O)=O)nc(-c2ccc(F)cc2)c1/C=C/[C@@H](O)C[C@@H](O)CC(=O)O", "system": "cynomolgus sandwich-cultured hepatocytes", "conditions": "1 µM", "measurement": "scaled biliary intrinsic clearance", "value": "6.6 mL/min/kg"}
{"Structure (SMILES)": "C[C@H](Oc1ccc(Br)cc1-c1ccon1)C(=O)O", "system": "human, plasma", "conditions": "600 mg once daily, day 10", "scale": "baseline: day 1", "measurement": "accumulation ratio (Cmax)", "value": 1.01}
{"Structure (SMILES)": "CC1(C)C(/C=C/C=C/C=C/C=C2\\N(CCCCS(=O)(=O)O)c3ccc4ccccc4c3C2(C)C)=[N+](CCCCS(=O)(=O)[O-])c2ccc3ccccc3c21", "system": "solution", "conditions": "66 µM, room temperature, dark, 800 nm", "measurement": "fluorescence half-life", "value": "38.4 h"}
{"Structure (SMILES)": "CC(C)(C(=O)N1CCOc2c(C#N)cncc2C1)C(F)F", "assay": "measured: Nausea", "system": "human", "conditions": "oral, 10 mg, CSF pharmacokinetic cohort", "measurement": "subjects with adverse event", "value": "16.7%"}
{"Structure (SMILES)": "COc1c(OCCCN2CCOCC2)ccc2c1N=C(NC(=O)c1cnc(N)nc1)N1CCN=C21", "system": "human", "scale": "baseline: females over males", "measurement": "decrease in V1", "value": "42.9%"}
{"Structure (SMILES)": "C=CC(=O)NC1CCN(c2ncc3ncnc(Nc4ccc(Oc5ccc6c(c5)ncn6C)c(C)c4)c3n2)CC1", "assay": "measured: total radioactivity", "system": "healthy male volunteers, plasma", "conditions": "oral solution, 60 mg, added: [14C]-labelled compound", "measurement": "tmax", "value": "1 h"}
{"Structure (SMILES)": "CN(CC#N)C(=O)C[C@H](Nc1nc2ccccc2[nH]1)c1cccc(C(F)(F)F)c1", "system": "human", "conditions": "intravenous infusion, 1.5 mg/kg, 1 mg/mL formulation", "measurement": "steady-state volume of distribution", "value": "41.2 ± 5.59 L"}
{"Structure (SMILES)": "C=CC(=O)N(C)CCOc1c(N)ncnc1-c1cc(F)cc(NC(=O)c2ccc(C3CC3)cc2F)c1C", "system": "human, whole blood", "conditions": "intravenous, 100 µg, drug interaction study", "measurement": "additional systemic clearance", "value": "658 mL/min"}
{"note": "A few entries again:"}
{"Structure (SMILES)": "C=CC(=O)Nc1cc(Nc2nccc(Nc3cc(Cl)c(F)cc3C(C)(C)O)n2)c(OC)cc1N1CC[C@@H](N(C)C)C1", "system": "human patients, plasma", "conditions": "oral, 100 mg daily, cycle 2 day 1, geometric mean", "measurement": "Css,max", "value": "252 ng/mL"}
{"Structure (SMILES)": "NC1(C(=O)N[C@@H](CCO)c2ccc(Cl)cc2)CCN(c2nc[nH]c3nccc2-3)CC1", "system": "metastatic CRPC patients", "conditions": "dose not given, grade 3 to 4, treatment-related, all doses, added: enzalutamide 160 mg daily", "measurement": "incidence of Vomiting", "value": "0%"}
{"Structure (SMILES)": "CCN1/C(=C/C(C)=O)Sc2ccc(F)cc21", "system": "cynomolgus monkey", "conditions": "oral, 100 mg/kg, 6 h post-dose", "scale": "baseline: pre-dose", "measurement": "diastolic blood pressure change", "value": "103 ± 9%"}
{"Structure (SMILES)": "CC(=O)c1ccc([C@H]2C[C@@]3(C)[C@@H](CC[C@@]3(O)C(F)(F)C(F)(F)F)[C@@H]3CCC4=CC(=O)CCC4=C32)cc1", "system": "human, pooled serum", "conditions": "oral, 200 mg, day 1, 2 h", "measurement": "serum concentration", "value": "24.2 ng/mL"}
